Published values of several laboratories.
A part holds a random share of what one study measured. Positions count from the first letter of the parent shown.

Block 1
Target: Sal-like protein 4, full length isoform B (SALL4, Homo sapiens, UniProt Q9UJQ4-2, residues 1-616)
Technique: universal PBM
Form: double-stranded DNA, one strand shown
Sample: in vitro
Concentration: not given
Setting: 8-mer, flanks averaged, mean of replicates
Direction: higher = stronger binding
| Sequence | E-score |
| --- | --- |
| CCGTAAGC | -0.112 |
| AGAGGATG | -0.116 |
| AAGTTAAC | 0.195 |
| GACGTAAA | 0.035 |
| ACGCCATA | 0.144 |
| CAACGTAA | 0.0996 |
| ATAGGGCG | -0.0399 |
| ACACGTCA | -0.0172 |
| CAGAAGTA | 0.2 |
| AGATGGAA | 0.0608 |
| ACAACATG | 0.0767 |
| AGTTAGGC | -0.0507 |
| CAGGACCA | -0.227 |
| ATGCTGCC | -0.0994 |
| GTGTAGTA | 0.123 |
| CATTCAGC | 0.018 |
| AGTCCGAT | 0.0203 |
| TCGCTAGA | -0.0851 |
| ATGTACAA | 0.275 |
| CTTCCCGA | -0.145 |
| GGTTTTAA | 0.1 |
| AGTTATGA | 0.415 |

Block 2
Target: Histone acetyltransferase KAT6A, winged helix 2, GST fusion (KAT6A, Homo sapiens, UniProt Q92794, residues 85-181)
Technique: protein binding microarray
Form: double-stranded DNA, one strand shown
Sample: in vitro
Concentration: not given
Setting: 8-mer, flanks averaged, mean of 2 arrays, mostly near background
Relative to: not given
Direction: higher = stronger binding
Residues (chain): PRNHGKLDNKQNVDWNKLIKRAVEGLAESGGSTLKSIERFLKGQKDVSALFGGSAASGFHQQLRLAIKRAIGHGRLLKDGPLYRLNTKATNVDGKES
| Sequence | E-score |
| --- | --- |
| ATTCTAGC | 0.0659 |
| TCGCGTCA | 0.0799 |
| CTTGCGAC | 0.0247 |
| AAGTGTTG | 0.0174 |
| GAGGCCAC | 0.0348 |
| CCTGCATA | -0.108 |
| GACAACCC | -0.1 |
| AAGCATTA | -0.0678 |
| CAATTCTA | -0.128 |
| GGTTCTCA | -0.0941 |
| GAAGGTCC | 0.023 |
| ACCCGTAG | -0.123 |
| GCGGATAA | 0.146 |
| TGATTCCA | -0.205 |
| ATAACAGA | -0.114 |
| CTAATTAC | 0.0573 |
| CCGTCCTC | 0.0327 |
| GCTTGAAA | 0.143 |
| CCTGGAAG | -0.00488 |
| CACATTGC | -0.0015 |
| ACCCAAGA | 0.0949 |
| ACCGATAC | 0.0401 |
| AGTTCCGA | -0.0013 |
| GATCGAGC | 0.227 |

Block 3
Target: CCNA1, cyclin fold, Cln2 fusion (human)
Technique: yeast growth competition, sequencing
Sample: yeast
Setting: weak parent motif
Relative to: not given
Direction: higher = stronger binding
Parent: SCAPER docking peptide (human); SNARRSLNFGGST
| Variant | normalised enrichment score |
| --- | --- |
| SNARRSLNFGRST [G11R] | 0.304 |
| SNARRSLAFGGST [N8A] | 0.379 |
| SNQRRSLNFGGST [A3Q] | 0.0891 |
| SNSRRSLNFGGST [A3S] | 0.337 |
| SNARKSLNFGGST [R5K] | 0.15 |
| SNARRQLNFGGST [S6Q] | 0.72 |
| SNARRSLNKGGST [F9K] | 0.0956 |
| SNARASLNFGGST [R5A] | 0.0622 |
| SNARRSLNFDGST [G10D] | 0.557 |
| SNARRALNFGGST [S6A] | 0.651 |
| SNARRSLNFGGWT [S12W] | 0.357 |
| PNARRSLNFGGST [S1P] | 0.446 |
| SNKRRSLNFGGST [A3K] | 0.231 |
| SNARRSLNFGGLT [S12L] | 0.692 |
| SNARRSLNFQGST [G10Q] | 0.281 |

Other studies, line by line
| Substance | target | test | system | setting | how to read | endpoint | result |
| --- | --- | --- | --- | --- | --- | --- | --- |
| PhoQ, residues 284 288 289 292 302 303 SNGLAW | PhoP, residues 12 14 15 18 19 NHTVL (Escherichia coli, UniProt P23836) | Sort-seq, measured: YFP reporter | E. coli | PhoQ-PhoP variant library, added: 10 µM Mg2+ | relative to: high Mg2+ state, higher = stronger signaling | fold induction | 6.94 |

A few entries again (block 3):
| Variant | normalised enrichment score |
| --- | --- |
| SNARRSLAFGGST [N8A] | 0.379 |
| SNSRRSLNFGGST [A3S] | 0.337 |
| SNARRQLNFGGST [S6Q] | 0.72 |
| SNARKSLNFGGST [R5K] | 0.15 |
